Measurements collected from several papers.
Parts stem from different laboratories: compare values within a part only. Substitutions count along the parent as printed.

Sample 1 — technique: DHFR PCA, deep sequencing; medium: yeast; with: (+)-ABA 17 µM; baseline: wild-type fitted maximum; direction: higher = stronger binding; endpoint: relative binding score
Target: ABI1, truncated, D143A, DHFR fusion (Arabidopsis thaliana)
Notes: methotrexate growth selection, single substitutions
Parent: PYL1, truncated, DHFR fusion (Arabidopsis thaliana); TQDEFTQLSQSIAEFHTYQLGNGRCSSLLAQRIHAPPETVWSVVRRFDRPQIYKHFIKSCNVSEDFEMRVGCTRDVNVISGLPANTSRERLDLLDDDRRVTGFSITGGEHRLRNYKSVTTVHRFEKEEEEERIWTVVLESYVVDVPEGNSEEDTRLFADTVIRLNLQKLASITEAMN
K126N: 89.6%
V143M: 41.8%
R113N: 86.7%
I57K: 10.3%
K168V: 64.1%
V145Q: 29.5%
H55V: 97.9%

Sample 2 — technique: RNA Bind-n-Seq; form: RNA; medium: in vitro; concentration: not given; baseline: input RNA pool; direction: higher = stronger binding; endpoint: bound/input enrichment
Target: RING finger protein unkempt homolog, zinc fingers 1-6, GST-SBP tag (UNK, Homo sapiens, UniProt Q9C0B0, residues 30-357)
Notes: RNA with constant flanks, human and mouse sites, ends assumed
Shared flanks, not repeated: GGGAGUUCUACAGUCCGACGAUC … CAACAGAGGAUUGAGCAUCA
Construct (chain): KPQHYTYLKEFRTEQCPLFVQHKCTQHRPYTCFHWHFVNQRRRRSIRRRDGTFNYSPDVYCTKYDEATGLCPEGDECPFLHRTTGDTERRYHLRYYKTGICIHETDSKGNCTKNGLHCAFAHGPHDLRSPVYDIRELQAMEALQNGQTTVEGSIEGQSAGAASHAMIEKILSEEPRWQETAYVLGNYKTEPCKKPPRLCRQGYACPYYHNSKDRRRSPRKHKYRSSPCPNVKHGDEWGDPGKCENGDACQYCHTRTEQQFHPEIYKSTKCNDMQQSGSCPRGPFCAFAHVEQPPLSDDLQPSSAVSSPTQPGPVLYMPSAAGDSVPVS
AUGUAUUCAAUAGAUCUCUACAACUAUGCCCCUUCUAGCAGGGAUACCUAUAACUUUGUGUUAGCACCAUGGAGAAUACAAUGUUUUUGCAACAUAUGAGAGAAGAUAGUUCUAGCCAUG: 0.377 ratio
CUGAAGUCAGGAAUGUCUCCUGAGCAGAGUAAGACUAAACCUGACUCUAGCAUAUAUCCUUUAGUAGACUCUAAAUCUUUUCUGGUGCAGAGCAGAUUGGAGCCUUCUGAAUUAAAAGAG: 0.215 ratio
GAUUAUUGUCAUAAGAAGAACUUUUUGCAUAGAGAUAUUAAAUGUUCAAAUAUCCUUCUAAAUAAUAGAGGACAGAUAAAACUUGCAGAUUUUGGACUUGCUCGUUUAUAUAGCUCAGAA: 4.59 ratio
AUACCUUCCCAAAUUGGUAACCUGGAGGCCUUGAGAGACCUUAAUGUAAGAAGAAAUCACCUAGUACAUUUGCCUGAAGAGCUGGCGGAGUUGCCUUUGAUACGGUUAGACUUCUCAUGC: 0.576 ratio
CUCAGAGAUGUGGCAUAUCAGUAUGUGAAAAAGGGGGCUCGUAUAUUUGUGGAAGGGAAAGUGGACUAUGGCGAGUACAUGGAUAAAAACAAUGUGAGGCGGCAAGCAACAACAAUCAUA: 0.31 ratio
GACGGUCCAUCCAGGGUGUCUUACACCUUACAGCGCCAGACUAUCUUCAACAUUUCCCUUAUGAAACUGUAUAACCACAGGCCUCUGACAGAGCCCAGCUUGCAGAAGACUGUCUUAAUU: 0.0966 ratio
GCCUUAGGUUGGGGGAUACUGUCAGGGGGAGAUUCCCUCUGUGUCUUUUCCUGAGUUGGAGCCACUUUUCAUUUCUGCACAGCCUCAAAGGUGGACAAGGUAAUAAAUAGCUUUGGAAAA: 0.277 ratio

Sample 3 — technique: RNA Bind-n-Seq; form: RNA; medium: in vitro; concentration: 365 nM; baseline: no-protein control; direction: higher = stronger binding; endpoint: RBNS enrichment (R)
Target: RNA binding protein fox-1 homolog 2, RRM domain, GST-SBP tag (RBFOX2, Homo sapiens, UniProt O43251-10, residues 100-194)
Notes: natural RNA segment, single round, ends assumed
Shared flanks, not repeated: GGGAGUUCUACAGUCCGACGAUC … UGGAAUUCUCGGGUGCCAA
Residues (chain): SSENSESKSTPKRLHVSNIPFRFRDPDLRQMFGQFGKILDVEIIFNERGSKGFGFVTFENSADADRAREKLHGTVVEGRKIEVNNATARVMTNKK
UUGAGCGCUGAAUCGUGUCCCAUGAGAUCAGGCGCCAUCUGUAAAGUCUCCUCUGGAAAUGCCAAUCCAUCCUUCCCCCAGCUGCUUCCUCGGGGAGGCCCCUGCCCCCA: 0.901
CUCACGUGGACUCCCAGUGCGAAGGGGCCCAUGGGUUGGGCUGCAGGCCUGGCCGUGAGCGGGGGCUGCCUGCACGCUCCCCUAGCCUACUCUUGUGUUUAGGGGAUGGU: 1.27
ACAUAGAUGUAAAUAAGGAACAGUUUGUCACACCUGACCCCAGUGAGUGGGGGGAAGGGCAGCUGUUAUCUUGCCAAGCCUGGUUGUAAUUUGUAACCAUUUUCUAUUUG: 0.378
CACAGCCCAAGGAGGAAAUGAUCACAGCUGGGGUUGAAGGCUUCACCUGCACAUCACUGCACAGACCUGAUUUGUGUCCCAGUGGACUUGUCCAAUGGAUGAAGUUGAUU: 0.377
GUUUAACAUAUACAAAUUCGUGAAUUCUUGUUCAUUUUGCAUUCCUGCAGUCAGUGCUAAUCCGUCGUUCUUAAUCAGGAGUUCUGCCAGGUUUAAGGUCACCUGCACUC: 0.363
CCAGUUCUUUGUUUACUUUUCAGGUUUGUACUACAAGGUUUAAUAAUAAAAAGUUUUUUGGACAUUUUGUCUGUCUUGUGGGAAGGGAUUGGGCUUUCUUUGGUCAGUGG: 0.661
AAGGCAAACCCAUGGUCACAGCAGGCCAUUUAGAGACUGAGUGGGCGGGGCACUUACCAUCCCUUCCACAAAGGAUAGCUUCCCCCAGCUCAAAAUGUAACUGUUUCUAA: 0.28
CUGAAGAUUAGUCUUUUAAUUUUAGACCAUUAUAUCUGCUGAGCACAGGAUUCUUAUCAUUUGUAAAUCUAAAACCGUCUGUGAACGCAUUUCUAUGCUUCUUCCUUUAU: 0.356
UUCUCAUUCUACAUAUAAUUUUGUUUAUUUCAGAUAAUUUUAUGUAAACAAAUUAAGAGUUAUUCAUUCAAAUUUUUUGCAGUGUUAAUCUGUAAAUGAUGGCUUGAUGU: 0.857
GUGAUGUUUUUAAAUGAAGAAAUGUGUGGAUAUUUAAGUGUGCUGCUCCCUCUUGUCUUGAAACAGUUUGAGUAAGAAAGUCUUGCUGUAAAUGCUGCCCUCUGCCGCCU: 1.18

Further values, each from its own experiment
PhoQ, residues 284 288 289 292 302 303 AQGLTV  fold induction (PhoP, residues 12 14 15 18 19 SMASL (Escherichia coli, UniProt P23836); Sort-seq, refers to: YFP reporter; E. coli; PhoQ-PhoP variant library, with: 10 µM Mg2+; baseline: high Mg2+ state, higher = stronger signaling): 0.958

A few entries again (sample 2):
CUGAAGUCAGGAAUGUCUCCUGAGCAGAGUAAGACUAAACCUGACUCUAGCAUAUAUCCUUUAGUAGACUCUAAAUCUUUUCUGGUGCAGAGCAGAUUGGAGCCUUCUGAAUUAAAAGAG: 0.215 ratio
GAUUAUUGUCAUAAGAAGAACUUUUUGCAUAGAGAUAUUAAAUGUUCAAAUAUCCUUCUAAAUAAUAGAGGACAGAUAAAACUUGCAGAUUUUGGACUUGCUCGUUUAUAUAGCUCAGAA: 4.59 ratio
AUACCUUCCCAAAUUGGUAACCUGGAGGCCUUGAGAGACCUUAAUGUAAGAAGAAAUCACCUAGUACAUUUGCCUGAAGAGCUGGCGGAGUUGCCUUUGAUACGGUUAGACUUCUCAUGC: 0.576 ratio
